Measured values gathered from unrelated publications.
Each line is one published result; not all experiments were run side by side. Several values in a cell are separate wells, animals, samples, runs or records. Numbers after ± are the reported error.
Organism: Plasmodium falciparum

`Ic1ccc(N2CCN(Cc3c[nH]c4ncccc34)CC2)cc1` gave a merozoite invasion of 96% (FVO, purified merozoites, erythrocytes; 25 µM).
The IC50 of `CC(CN1c2ccccc2Sc2ccccc21)N(C)C` (stereo not drawn) is reported as 6310 nM (Dd2).
The parasite survival of `C[C@H]1[C@@H](O)O[C@@H]2O[C@@]3(C)CC[C@H]4[C@H](C)CC[C@@H]1[C@@]24OO3` is reported as 18.9% (ring-stage survival; 6320; 700 nM, 6 h).
Under “EC50 fold shift”, `Cc1nnc(-c2ccc3ccn(CC(=O)Nc4ccccc4Cl)c3c2)o1` is recorded as 3 fold (Dd2 PfATP4 G358S; 72 h; relative to: mutant over parental).
`CN(C)CCCN1c2ccccc2CCc2ccccc21` gave an IC50 of 12600 nM (HB3).
For `O=C(Nc1cccc(Cl)c1Cl)Nc1ccnc2ccccc12`, the EC50 ratio was 2.7 (parasite growth, SYBR Green; 72 h; relative to: 3D7-E182D over 3D7).
`OC(CN1CCC(Cc2ccc(F)cc2)CC1)c1ccc(Cl)cc1` (stereo not drawn) has an IC50 of 251 nM (W2).
With `CCc1nc2nc(C)cc(Nc3cc(C)cc(C)c3)n2n1` the EC50 was 102 ± 28 nM (parasite growth; Dd2).
`Cn1nc2c(=O)n(C3CC3)cnc2c1[C@](O)(c1cnc(C(F)(F)F)c(Cl)c1)C(F)(F)F`: “day parasites below quantitation limit” no more than 9 days (Pf3D7^0087/N9, mouse; 30 mg/kg for 6 days).
For `O=C1C(O)=C([C@H]2CC[C@H](c3ccc(Cl)cc3)CC2)C(=O)c2ccccc21`, the resistance index was 4570 (C2B; 96 h; relative to: C2B over 3D7).
`O=C(NCCN1CCCC1)c1cc(-c2ccc(CN3CCOCC3)cc2)nc2ccc(F)cc12`: “break point of parasite clearance” 54.6 h and 55.7 h and 48 h and 66.7 h and 80 h and 43.2 h and 54.7 h and 81.1 h (18S rRNA qPCR; human; 400 mg).
`Cc1onc(-c2ccccc2)c1-c1ccc(S(N)(=O)=O)cc1` gave an IC50 of greater than 100000 nM (parasite growth, inhibitor, SYBR Green I; Cam3.1 R539T (MRA-1240)).
`CC1(C)N=C(N)N=C(N)N1c1ccc(Cl)cc1` has a resistance index of 140 (growth, [3H]-hypoxanthine uptake; FCR3; 96 h; relative to: FCR3 IC50 over 3D7 IC50).
With `Cl.O[C@]12C=C(c3nccc4c3[nH]c3ccccc34)[C@@H]3CCN(CCCC/C=C\CC1)C[C@@]31C[C@@H]3/C=C\CCCCN3[C@H]12` the selectivity index was 70 (D6, chloroquine-sensitive; relative to: Vero IC50 over D6 IC50).
`C[C@H]1[C@@H](O)O[C@@H]2O[C@@]3(C)CC[C@H]4[C@H](C)CC[C@@H]1[C@@]24OO3` has an EC50 of 2.67 ± 0.44 nM (parasite growth).
With `CCN(CC)[C@@H]1CCc2c(F)ccc(O)c2C1` the IC50 was 1580 nM (3D7).
`CCc1cc2c(cc1CC)CC(NC[C@@H](O)c1ccc(O)c3[nH]c(=O)ccc13)C2` has an EC50 of 457 ± 28 nM (parasite growth, SYBR Green; 3D7 wild type; 72 h).
The IC50 of `C[C@H]1c2cccc(O)c2C(=O)C2=C(O)[C@]3(O)C(=O)C(C(N)=O)=C(O)[C@@H](N(C)C)[C@@H]3[C@@H](O)[C@@H]21` is reported as 6310 nM (GB4).
`Cc1ccc(NC(=O)c2cc(S(=O)(=O)NC(C)(C)C)ccc2C)nc1` gave an EC50 of 475 ± 170 nM (parasite growth, SYBR Green; 3D7 wild type; 72 h).
`CCCCCCCCCCCCCCCC(=O)NCCO` has an IC50 of 3160 nM (GB4).
The EC50 ratio of `COc1ccccc1Cn1ccnc1SCC(=O)Nc1cccc(C(F)(F)F)c1` is reported as 8.8 (parasite growth, SYBR Green; 72 h; relative to: 3D7-E182D over 3D7).
For `CC(C)C[C@@H](CC(=O)N[C@@H](CCCN)CC(=O)N[C@@H]1CCNC[C@H]1C(=O)N[C@H](CC(=O)N[C@@H](CCC(=O)O)CC(=O)O)Cc1ccccc1)NC(=O)[C@@H]1CNCC[C@H]1N`, growth inhibition read “inactive” (SYBR Green; FVO; concentration not given, 36 h).
The EC50 of `CCOCC(=O)N1CCC[C@H](C(=O)NCc2nc(-c3ccc(C#N)cc3)cs2)C1` is reported as 26000 ± 11000 nM (Dd2 β5 S27F CRISPR-edited).
For `C=CCc1ccccc1OCC(O)CNC1(C)CCC(C(C)(C)NC(=O)CBr)CC1` (stereo not drawn), the IC50 was 6310 nM (D10).
The EC50 of `COCC(C)n1c(SCC(=O)Nc2cc(C(F)(F)F)ccc2Cl)nc2ccccc2c1=O` (stereo not drawn) is reported as 57.5 ± 9.3 nM (parasite growth, SYBR Green; 3D7 wild type; 72 h).
`CC[N+](CC)(CC)CCOc1ccc(/C=C/c2ccccc2)cc1` has an IC50 of 794 nM (HB3).
With `COCc1ccccc1C(=O)NCCOc1cc(C)cc(C)c1` the EC50 was 114 ± 51.9 nM (parasite growth; Dd2).

A few entries again:
`O=C(NCCN1CCCC1)c1cc(-c2ccc(CN3CCOCC3)cc2)nc2ccc(F)cc12`: “break point of parasite clearance” 54.6 h and 55.7 h and 48 h and 66.7 h and 80 h and 43.2 h and 54.7 h and 81.1 h (18S rRNA qPCR; human; 400 mg).
For `C=CCc1ccccc1OCC(O)CNC1(C)CCC(C(C)(C)NC(=O)CBr)CC1` (stereo not drawn), the IC50 was 6310 nM (D10).
Under “EC50 fold shift”, `Cc1nnc(-c2ccc3ccn(CC(=O)Nc4ccccc4Cl)c3c2)o1` is recorded as 3 fold (Dd2 PfATP4 G358S; 72 h; relative to: mutant over parental).
The EC50 of `CCOCC(=O)N1CCC[C@H](C(=O)NCc2nc(-c3ccc(C#N)cc3)cs2)C1` is reported as 26000 ± 11000 nM (Dd2 β5 S27F CRISPR-edited).
